Experimental data gathered from unrelated publications.
Lines come from different studies, so protocols differ. “And” joins repeats or separate records; there may be more than shown. Numbers after ± are the reported error.

Under “adverse event incidence”, CN1CC[C@@H](c2c(O)cc(O)c3c(=O)cc(-c4ccc(C(F)(F)F)cc4Cl)oc23)[C@@H]1CO is recorded as 17.5% (measured: Anemia; relapsed or refractory haematological malignancies; oral, dose not given, grade ≥3).
N#C/N=C1\SCCN1Cc1ccc(Cl)nc1 has a recovery of 50% (soil; 0 days, nominal 0.12).
For CC(Nc1nc(N2CCN(CCN)CC2)nc2ccccc12)c1ccccc1 (stereo not drawn), the cytotoxicity efficacy was -12.7% (Vero-E6; CellTiter-Glo ATP; concentration not given, 72 h, second round 5-point; relative to: DMSO 0%, hyamine -100%, more negative, more toxic).
CC(=O)c1c(C)c2cnc(Nc3ccc(C4CCN(CCS(C)(=O)=O)CC4)cn3)nc2n(C2CCCC2)c1=O gave a Cmax of 333 ng/mL (beagle dog, male, fasted, blood; oral gavage, 15 mg/kg, acidified methylcellulose vehicle).
CC(C)C[C@H](NC(=O)[C@H](CCCCN)NC(=O)OCC1c2ccccc2-c2ccccc21)C(=O)N[C@H](C(=O)N[C@@H](Cc1ccccc1)C(=O)N[C@@H](Cc1ccccc1)C(=O)N[C@@H](CCCCN)C(=O)NCC(=O)N[C@@H](Cc1ccccc1)C(=O)N[C@@H](C)C(=O)N[C@@H](Cc1c[nH]c2ccccc12)C(=O)N[C@@H](CC(N)=O)C(=O)N[C@H](C(=O)N[C@H]1CSSC[C@@H](C(=O)N[C@@H](Cc2c[nH]cn2)C(=O)N[C@@H](CCCNC(=N)N)C(=O)N[C@@H](CCCNC(=N)N)C(=O)N[C@@H](C)C(=O)N[C@@H](CC(N)=O)C(N)=O)NC(=O)[C@H](C(C)C)NC(=O)[C@H](CCCNC(=N)N)NC(=O)[C@H](C(C)C)NC(=O)CNC(=O)[C@H](CC(N)=O)NC(=O)[C@H](CCCNC(=N)N)NC(=O)[C@H](Cc2ccc(O)cc2)NC(=O)[C@H](C(C)C)NC1=O)C(C)C)C(C)C gave a breathing score of 0 (ICR mouse; ip, 5 mg/kg; direction not given).
For CO[C@H]1C[C@@H]2CC[C@@H](C)[C@@](O)(O2)C(=O)C(=O)N2CCCC[C@H]2C(=O)O[C@H]([C@H](C)C[C@@H]2CC[C@@H](OC(=O)NCCOCCOCCOCCOCCOCCOCCOCCOCCC(=O)N3CCc4cc(Cn5nc(-c6ccc7oc(N)nc7c6)c6c(N)ncnc65)ccc4C3)[C@H](OC)C2)C[C@@H](O)[C@H](C)/C=C(\C)[C@@H](O)[C@@H](OC)C(=O)[C@H](C)C[C@H](C)/C=C/C=C/C=C/1C, “incidence of Rash TRAE” read 3.5% (patients with advanced solid tumours; intravenous, dose not given, grade ≥3).
CC[C@H](C)[C@H](NC(=O)[C@H](Cc1ccccc1)NC(=O)[C@H](CCC(=O)O)NC(=O)[C@H](CCCNC(=N)N)NC(=O)[C@H](C)NC(=O)[C@H](C)NC(=O)[C@H](CCC(N)=O)NC(=O)[C@H](CCC(=O)O)NC(=O)[C@H](CCC(=O)O)NC(=O)[C@H](CC(C)C)NC(=O)[C@H](Cc1ccc(O)cc1)NC(=O)[C@H](CO)NC(=O)[C@H](CO)NC(=O)[C@@H](NC(=O)[C@H](CC(=O)O)NC(=O)[C@H](CO)NC(=O)[C@@H](NC(=O)[C@H](Cc1ccccc1)NC(=O)[C@@H](NC(=O)CNC(=O)[C@H](CCC(=O)O)NC(=O)[C@H](C)NC(=O)CCc1cnc[nH]1)[C@@H](C)O)[C@@H](C)O)C(C)C)C(=O)N[C@@H](C)C(=O)N[C@@H](Cc1c[nH]c2ccccc12)C(=O)N[C@@H](CC(C)C)C(=O)N[C@H](C(=O)N[C@@H](CCCNC(=N)N)C(=O)NCC(=O)N[C@@H](CCCNC(=N)N)C(=O)N[C@@H](CCCCNC(=O)COCCOCCNC(=O)COCCOCCNC(=O)CC[C@H](NC(=O)CCCCCCCCCCCCCCCCC(=O)O)C(=O)O)C(=O)NCC(=O)NCC(=O)N[C@@H](CO)C(=O)N[C@@H](CCCCNC(=O)[C@H](CCCCNc1c(NCCCCCN(O)C(=O)CCC(=O)NCCCCCN(O)C(=O)CCC(=O)NCCCCCN(O)C(C)=O)c(=O)c1=O)Nc1c(NCCCCCN(O)C(=O)CCC(=O)NCCCCCN(O)C(=O)CCC(=O)NCCCCCN(O)C(C)=O)c(=O)c1=O)C(=O)O)C(C)C [zirconium-89 labelled] gave a tissue uptake of 0.343 %ID/g and 0.325 %ID/g (ex vivo gamma counting; Sprague-Dawley rat, male, blood; intravenous, 1 nmol, 24 h).
With CCC[C@@](N)(CO)CCc1ccc(OCCCCCC(C)C)cc1 the Cmax was 686 nM (dog; oral, 15 mg/kg).
Cn1ncc(-c2nc(N[C@H]3CC[C@H](N)CC3)ncc2Cl)c1CC1CC1: “alanine aminotransferase increase incidence” 12.9% (phase I dose escalation; human patients; dose not given, treatment-related adverse events).
With CC[C@H](C)[C@H](NC(=O)[C@H](CC(C)C)NC(=O)[C@H](Cc1c[nH]c2ccccc12)NC(=O)[C@H](CCC(N)=O)NC(=O)[C@@H](NC(=O)[C@H](Cc1ccccc1)NC(=O)[C@H](C)NC(=O)[C@H](CCCCNC(=O)COCCOCCNC(=O)COCCOCCNC(=O)CC[C@H](NC(=O)CCCCCCCCCCCCCCCCCCC(=O)O)C(=O)O)NC(=O)[C@H](CCC(N)=O)NC(=O)[C@H](C)NC(=O)[C@@H](NC(=O)[C@H](CCCCN)NC(=O)[C@H](CC(=O)O)NC(=O)[C@H](CC(C)C)NC(=O)C(C)(C)NC(=O)[C@@H](NC(=O)[C@H](CO)NC(=O)[C@H](Cc1ccc(O)cc1)NC(=O)[C@H](CC(=O)O)NC(=O)[C@H](CO)NC(=O)[C@@H](NC(=O)[C@H](Cc1ccccc1)NC(=O)[C@@H](NC(=O)CNC(=O)[C@H](CCC(=O)O)NC(=O)C(C)(C)NC(=O)[C@@H](N)Cc1ccc(O)cc1)[C@@H](C)O)[C@@H](C)O)[C@@H](C)CC)[C@@H](C)CC)C(C)C)C(=O)N[C@@H](C)C(=O)NCC(=O)NCC(=O)N1CCC[C@H]1C(=O)N[C@@H](CO)C(=O)N[C@@H](CO)C(=O)NCC(=O)N[C@@H](C)C(=O)N1CCC[C@H]1C(=O)N1CCC[C@H]1C(=O)N1CCC[C@H]1C(=O)N[C@@H](CO)C(N)=O the AUC(0-tau) was 26100 ng·h/mL (human, plasma; subcutaneous, 2.5 mg first dose, week 1, 10 mg group, tau 168 h, geometric mean).
For COc1cc2c(Oc3ccc4[nH]c(C)cc4c3F)ccnc2cc1OCC1(N)CC1, “grade 3 Hyperuricemia” read 0% (paediatric recurrent refractory sarcoma; concentration not given, whole group).
CCCCNC(=O)C1CCCN(Cc2nc(-c3ccc(Cl)cc3)oc2C)C1 (stereo not drawn) gave a cytotoxicity efficacy of -28.6% (Vero-E6; CellTiter-Glo ATP; concentration not given, 72 h, second round 5-point; relative to: DMSO 0%, hyamine -100%, more negative, more toxic).
C[C@]1(CO)Cc2ncn(-c3ccc(C#N)c(Cl)c3)c2C(=O)O1: “disorders, nervous system, drug related” 6.3% (human; concentration not given, European single ascending dose).
COc1ccc(-c2c(-c3ccc(C#N)c(F)c3)nc(N3CCC(N)CC3)n(C)c2=O)cc1F: “treatment-related adverse event incidence” 8% (measured: Neutropenia; human patients; oral, dose not given, grade 3 to 4, dose escalation, NG).
O=C(O)CCCOc1ccc(F)cc1-c1cc(-c2ccccc2C(F)(F)F)n(-c2ccccc2)n1: “serum enzyme activity” 151 ± 29.8 U/L (measured: ALP; Crl:CD(SD) rats, female, serum; iv, 25 µg/kg, 1 day).

Repeated from above:
CCCCNC(=O)C1CCCN(Cc2nc(-c3ccc(Cl)cc3)oc2C)C1 (stereo not drawn) gave a cytotoxicity efficacy of -28.6% (Vero-E6; CellTiter-Glo ATP; concentration not given, 72 h, second round 5-point; relative to: DMSO 0%, hyamine -100%, more negative, more toxic).
N#C/N=C1\SCCN1Cc1ccc(Cl)nc1 has a recovery of 50% (soil; 0 days, nominal 0.12).
